Measured values of several laboratories.
Compare with care: the assays were run in different laboratories. ± gives the spread as reported.
Cell line: MCF7

CCCCCCCCCCCCCCCOC(=O)/C=C/c1ccc(O)c(OC)c1 — IC50 (cell viability, MTT; 48 h, serum-free medium): 1.9 ± 0.2 µg/mL
CCC(C(=O)O)C1CCC(C)C(C(C)C(O)C(C)C(=O)C(CC)C2OC3(C=CC(NCc4cn(CCCCSC(C)=O)nn4)C4(CCC(C)(C5CCC(O)(CC)C(C)O5)O4)O3)C(C)CC2C)O1 (centres unmarked) — IC50 (cell growth or viability, resazurin; 72 h): 3.02 µM
NS(=O)(=O)c1ccc(/N=N/c2ccc(O)c(/C=N/c3ccccn3)c2)cc1 — IC50 (cell growth or viability, MTT; 72 h): 4.25 µM
CC(C)c1cccc(C(C)C)c1-n1ccn(-c2c(C(C)C)cccc2C(C)C)c1=[Se].[Cl][Ag] — IC50 (cell growth or viability, MTT; 72 h): 3.8 µM
C/C(=N\N=C(SCc1ccccc1)SCc1ccccc1)c1ccc(S(=O)(=O)N2CCC(C)CC2)cc1 — IC50 (cell growth or viability, MTT): 32.1 µM
CC(C)CCc1c(O)cc2oc3cc(O)c(O)c(CCC(C)C)c3c(=O)c2c1O — IC50 (cell growth or viability; 48 h): 12.3 µM
N=C(N)NCCC[C@@H](N)C(=O)N[C@@H](CC(=O)N[C@H](Cc1ccccc1)C(=O)N[C@H](CC(=O)O)C(=O)O)c1ccc2ccccc2c1 — IC50 (cell growth or viability, ATP luminescence; 72 h): > 100 µM
O=C(CN1CCC(c2noc3cc(F)ccc23)CC1)N1CCC(=C2c3ncccc3CCc3cc(Cl)cc(Br)c32)CC1 — IC50 (cell growth or viability, SRB): 45 µM
O=C(NCCNc1n[n+]([O-])c2ccccc2[n+]1[O-])C(F)(F)F — IC50 (cytotoxicity, MTT; 10% FBS medium; 6 h + 18 h, hypoxia 3% O2): 29 ± 14 µM
CSc1nc(Nc2ccc(/C(C)=N/NC(=O)c3ccc([N+](=O)[O-])cc3)cc2)c(C#N)c(-c2ccccc2)n1 — IC50 (cell growth or viability, MTT; 48 h): 14.3 µM
C[C@@H]1CC[C@@H]([C@@](O)(CNCc2cccc(F)c2)COCc2ccccc2)[C@H](OCc2ccccc2)C1 — IC50 (cell growth or viability, MTT; 72 h): 0.74 µM

Excerpt of the above:
CCC(C(=O)O)C1CCC(C)C(C(C)C(O)C(C)C(=O)C(CC)C2OC3(C=CC(NCc4cn(CCCCSC(C)=O)nn4)C4(CCC(C)(C5CCC(O)(CC)C(C)O5)O4)O3)C(C)CC2C)O1 (centres unmarked) — IC50 (cell growth or viability, resazurin; 72 h): 3.02 µM
